Measured values collected from several papers.
Parts stem from different laboratories: compare values within a part only. Changes are numbered by the printed parent chain.

Series 1
Target: Phosphate system positive regulatory protein PHO4, full length, GST-tagged (PHO4, Saccharomyces cerevisiae, UniProt P07270, residues 1-312)
Technique: competition protein-binding microarray
Form: double-stranded DNA, one strand shown
Sample: in vitro
Concentration: 2 µM
Setting: whole 60-bp probe, lowest competitor level
Together with: Cbf1 competitor, 0.05 µM
Reading: higher = stronger binding
Endpoint: fluorescence intensity
Shared flanks, not repeated: … GTCTTGATTCGCTTGACGCTGCTG
Residues (chain): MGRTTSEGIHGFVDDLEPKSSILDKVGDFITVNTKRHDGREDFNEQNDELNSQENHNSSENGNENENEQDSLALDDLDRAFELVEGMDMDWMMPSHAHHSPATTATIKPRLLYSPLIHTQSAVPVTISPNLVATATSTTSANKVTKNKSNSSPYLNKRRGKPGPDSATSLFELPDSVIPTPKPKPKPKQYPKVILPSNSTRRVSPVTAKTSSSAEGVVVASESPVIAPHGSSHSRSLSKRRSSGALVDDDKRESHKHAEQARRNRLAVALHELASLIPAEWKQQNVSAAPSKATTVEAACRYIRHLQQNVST
GCTGCTGCTGCGAGTCACGGGCTCTGTTTACTACTA: 5090 a.u.
CTTTCCCGATCTTGTAGCGTGGGTGTAGCACATTTG: 7940 a.u.
GCTATTGTATTTTATGGCGTGGGTAAAAATTCAATA: 7360 a.u.
CGTCCTAGTGATTGGGTGGTGGGTGCCATGAGGAAG: 7910 a.u.
CATACCCAACCTTGTTCCGTGGGTGAAGATATTTGT: 5050 a.u.
TGCGCAACAACTTATCACGTGTTTTTATGTCTAGAA: 16900 a.u.
GTTATAAGTGCTTTTCTCGTGCAAATCCCTGACACT: 5350 a.u.
CTAACGAAGGTTTGATAAGTGGGTGACAAGCCAAGT: 4070 a.u.
CTTCTGTAAATTTTTCACGTGGGCTGACGCGCCCCG: 13700 a.u.
CTGCATGGTACTGCTCATATGACAACTCCCACCCAG: 6460 a.u.
AAAAAAATACATAGTAGCATGACAAACTAATAATAA: 5000 a.u.
CTAACGAAGGTTTGGCTAGTGGGTGACAAGCCAAGT: 3410 a.u.
AAGCACTGCGGTAGGTGCATGACAGGAGGCCCCTAG: 5360 a.u.
GCTCTGTCATCGCTCAACGTGGAAGCTCCGACGGTG: 10100 a.u.
GTACTTGATTTAACCTGCGTGCTTTAAGTCGGTAAA: 9560 a.u.
GCTTTCTAAAGCCGTCACGGCAATAGAAAATTGCGC: 2900 a.u.
CTTGGTGAAAATGGTAACGTGACTCGGTGTTGTTTT: 8210 a.u.
TATTTTCTCAGCCGTCACGTGCGATAAAAAAGTCAA: 16100 a.u.
TGCGCAACAACTTGTCTAGTGGGTGTATGTCTAGAA: 4710 a.u.
CTTCTGTAAATTTGATTGGTGGGTGGACGCGCCCCG: 3770 a.u.
CTTCTGTAAATTTGCCTTGTGGGTGGACGCGCCCCG: 5290 a.u.
AAAGCGGTAATTTTTCACGTGCCTTCACATATCTAT: 16600 a.u.
CTTTCCCGATCTTGTCACCCGACTTTAGCACATTTG: 3910 a.u.
TTTTCTTGGTCAAGGTCTGTGATATCCCCTTCCGGT: 2710 a.u.
CAACGATTGATTACGCAGATGACTAACCGCCAGTCA: 2640 a.u.

Series 2
Target: RING finger protein unkempt homolog, zinc fingers 1-6, GST-SBP tag (UNK, Homo sapiens, UniProt Q9C0B0, residues 30-357)
Chain of UniProt Q9C0B0 (30-357, looked up): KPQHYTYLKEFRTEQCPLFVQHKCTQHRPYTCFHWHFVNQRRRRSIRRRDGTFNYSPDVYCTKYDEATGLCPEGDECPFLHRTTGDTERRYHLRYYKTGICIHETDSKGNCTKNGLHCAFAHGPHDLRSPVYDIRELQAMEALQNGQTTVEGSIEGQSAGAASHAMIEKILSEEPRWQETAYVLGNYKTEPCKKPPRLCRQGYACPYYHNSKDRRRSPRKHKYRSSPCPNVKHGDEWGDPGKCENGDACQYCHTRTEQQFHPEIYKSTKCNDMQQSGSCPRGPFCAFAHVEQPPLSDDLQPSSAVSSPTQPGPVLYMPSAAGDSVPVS
Technique: RNA Bind-n-Seq
Form: RNA
Sample: in vitro
Concentration: not given
Setting: RNA with constant flanks, human and mouse sites, ends assumed
Reference: input RNA pool
Reading: higher = stronger binding
Endpoint: bound/input enrichment
Shared flanks, not repeated: GGGAGUUCUACAGUCCGACGAUC … CAACAGAGGAUUGAGCAUCA
ACUCGUUUGCUUUUUUUCUUUUUUUAACUAAGAGCUGUGUUCCUGGCUAGAGAAUUUCAUUAUAGGGAGCUGAGCCCCGGCCCAUAUGGGUGUACUGCUCGGAGACUGGGAGCAAGGGGU: 1.46 ratio
GAUCCACAGUGGUCUGAGGAGCAACUCAUUGCUGCAAAAUUCUGUUUUGCUGGCCUUGUUAUAGGGCAGACUGAAGUGGACAUCAUGAGUCAUGCCACACAAGCUAUUUUUGAAAUUCUG: 0.207 ratio
AAUAUGGCCAAGCAGAUCGGAGCAGCCACUUACAUAGAAUGCUCAGCUUUACAGUCAGAAAACAGCGUCAGAGACAUUUUUCACGUCGCCACCUUGGCGUGUGUAAAUAAGACAAAUAAA: 0.237 ratio
UUGCAUAAGACAGUUAUGCAAAAUGGAGCUGGAGGAGCUUUAUUUGUGCACAGAGAUACUCCUGAGAAUAACCCUGAUACUCCAUUUGAUUUCACACCAGAAAACUAUAAGAGGAUAGAG: 0.175 ratio
UCAUCAAUUGCAACUUCUUCAGUGAAAGGUCUUUCAACUACAGGAAACUCGUCUCUUAAUAGUACAUCCAACACUAAAGUGUCAGCGAUACCUACCAAUAUGGCUGCCAAGAAAACAUCU: 0.152 ratio
UGUGAAAGAAAGGUUUUGCAUUCUGUCUACACAUUCGGCAGGAAUGAGUCCAGUUCCCUGUUUAGAUUCUUUGAGUGUAAUUUAUUGUGAAUGGCAGUUCAAAAUUCAGUUGAUCGGUCU: 1.25 ratio
UACCACGAGGGGGGACGCGUCUGGGUUGGCAGACCUUUUGGAUGUAGCCUUGUGGGAACAUUUAGACCCUUUCCUCUGGAAGAGCCACCAUGAAUUCGGUAGCCGGAAAUAAAGAGAGGC: 0.343 ratio
CCUAGGCUAAAUGAGAAUGAAAGCGACUUCAGGUCAGGUGGCUGUGGGAUUUUUUUUUUUUGGUCCUUCUUUCCUCUUAACGUAAAUCCACCACCAAAAUUAUUAAUCCUCUUGAGAGAA: 0.729 ratio
GAGUGGCAUAAAGUUUUUGAUCUUCCUGAGUCGCUGGGUGGCAUUCGGGCUUGCACUCUCACAGUUUUUCCACCUGAAGAAAACCCUGGGUCACCUUCUAGAGAAUCACCUCUUUCAGCA: 0.247 ratio
CUCAUACAGAUCCUGCAGCUCAUGGCCAACAGCACACAGAUGAAGAAGGUUAUGUUAACAGUAUUUAAACACAAUCAUGGUGCCUACCAGUUCUUCAGAGAAGCGUUGCAAUUUGAAAUU: 0.277 ratio
CCUUCAGAAACAUUCAUAUUCAUUUUCAUGAGUCAGCAAAAGCCCUACGCUUGAUUCCAACAGAAUAUUUCCUUUACAUACUUUCUUCUCUUAAUUUUUACAAAAUUUGUAUGGUAGGUG: 0.867 ratio

Series 3
Target: CCNE1, cyclin fold, Cln2 fusion (human)
Technique: yeast growth competition, sequencing
Sample: yeast
Setting: weak parent motif
Reference: not given
Reading: higher = stronger binding
Endpoint: normalised enrichment score
Starting sequence: SLBP docking peptide (human); ARYKRKLLINDFG
N10R: -0.0721
K6N: 1.68
K6S: 0.0242
K4G: 0.165
N10C: 0.608
L7K: -0.0988
K6Q: 1.8
F12R: 0.668
K4R: 0.0757
Y3V: 0.708
L7I: -0.263
N10A: 0.291
L7H: -0.576
L7R: 0.0794
I9C: 1.1
F12E: 0.294
R5C: 0.806
R5V: 0.923
R2T: 1.42
L8D: 0.164
N10K: 0.0569
Y3H: 0.561
L7P: 0.387
I9F: 2.1
Y3P: 0.173

Series 4
Target: NFE2, bZIP domain (human)
Technique: DHFR protein complementation
Sample: yeast
Setting: single substitutions, most at no-binding floor
Reference: wild-type JUN-FOS pair
Reading: higher = stronger binding
Endpoint: binding fitness
Starting sequence: JUN, bZIP domain (human); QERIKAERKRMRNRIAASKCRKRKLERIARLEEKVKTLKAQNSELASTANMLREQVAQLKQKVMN; partner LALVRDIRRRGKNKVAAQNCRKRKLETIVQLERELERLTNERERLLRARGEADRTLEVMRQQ
L52K: -1.53 natural log
N42W: -1.54 natural log
M51Q: -1.43 natural log
R30S: -1.2 natural log
Q55E: -1.49 natural log
I28L: -1.58 natural log
Q55G: -1.46 natural log
V35R: -1.35 natural log
Q58R: -0.972 natural log
E44R: -1.5 natural log
A40Y: -1.2 natural log
L45G: -1.48 natural log
R53H: -1.43 natural log
A40E: -1.49 natural log
R30T: -1.34 natural log
K39E: -1.5 natural log
S43N: -1.34 natural log
L31E: -1.37 natural log
T37V: -1.53 natural log
A46I: -1.39 natural log
R53K: -1.55 natural log
L52C: -1.51 natural log
R53Q: -1.48 natural log
K36E: -1.24 natural log
E44P: -1.49 natural log

Excerpt of the above (series 1):
CTGCATGGTACTGCTCATATGACAACTCCCACCCAG: 6460 a.u.
AAAAAAATACATAGTAGCATGACAAACTAATAATAA: 5000 a.u.
CTAACGAAGGTTTGGCTAGTGGGTGACAAGCCAAGT: 3410 a.u.
AAGCACTGCGGTAGGTGCATGACAGGAGGCCCCTAG: 5360 a.u.
GCTCTGTCATCGCTCAACGTGGAAGCTCCGACGGTG: 10100 a.u.
GTACTTGATTTAACCTGCGTGCTTTAAGTCGGTAAA: 9560 a.u.
GCTTTCTAAAGCCGTCACGGCAATAGAAAATTGCGC: 2900 a.u.
CTTGGTGAAAATGGTAACGTGACTCGGTGTTGTTTT: 8210 a.u.
TATTTTCTCAGCCGTCACGTGCGATAAAAAAGTCAA: 16100 a.u.
TGCGCAACAACTTGTCTAGTGGGTGTATGTCTAGAA: 4710 a.u.
